# Results from different studies.
# Each numbered part is a random draw from the data of one study; scales do not carry over between parts.

# Set 1 — technique: protein binding microarray; form: double-stranded DNA, one strand shown; matrix: in vitro; concentration: not given; reference: not given; reading: higher = stronger binding
# Target: Histone acetyltransferase KAT6A, both winged helices, GST fusion (KAT6A, Homo sapiens, UniProt Q92794, residues 1-181)
# Notes: 8-mer, flanks averaged, mean of 2 arrays, mostly near background
# Construct (chain): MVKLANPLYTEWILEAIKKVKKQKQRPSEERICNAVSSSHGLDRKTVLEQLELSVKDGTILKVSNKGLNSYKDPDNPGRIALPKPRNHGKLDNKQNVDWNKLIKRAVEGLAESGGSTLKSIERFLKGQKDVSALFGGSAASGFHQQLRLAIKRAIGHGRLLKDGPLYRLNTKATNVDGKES
Oligonucleotide,E-score
ACGGATTG,0.165
CCCCGGAA,0.0237
GGCGGACC,0.223
ACGTCGGC,0.178
CGACCTAG,0.0645
GACTGGGC,-0.172
ACAGCTCT,-0.241
TAAGCACA,0.0512

# Set 2 — technique: universal PBM; form: double-stranded DNA, one strand shown; matrix: in vitro; concentration: 600 nM; reading: higher = stronger binding
# Target: Sal-like protein 4, full length isoform A (SALL4, Homo sapiens, UniProt Q9UJQ4, residues 1-1053)
# Sequence of UniProt Q9UJQ4 (whole entry, looked up): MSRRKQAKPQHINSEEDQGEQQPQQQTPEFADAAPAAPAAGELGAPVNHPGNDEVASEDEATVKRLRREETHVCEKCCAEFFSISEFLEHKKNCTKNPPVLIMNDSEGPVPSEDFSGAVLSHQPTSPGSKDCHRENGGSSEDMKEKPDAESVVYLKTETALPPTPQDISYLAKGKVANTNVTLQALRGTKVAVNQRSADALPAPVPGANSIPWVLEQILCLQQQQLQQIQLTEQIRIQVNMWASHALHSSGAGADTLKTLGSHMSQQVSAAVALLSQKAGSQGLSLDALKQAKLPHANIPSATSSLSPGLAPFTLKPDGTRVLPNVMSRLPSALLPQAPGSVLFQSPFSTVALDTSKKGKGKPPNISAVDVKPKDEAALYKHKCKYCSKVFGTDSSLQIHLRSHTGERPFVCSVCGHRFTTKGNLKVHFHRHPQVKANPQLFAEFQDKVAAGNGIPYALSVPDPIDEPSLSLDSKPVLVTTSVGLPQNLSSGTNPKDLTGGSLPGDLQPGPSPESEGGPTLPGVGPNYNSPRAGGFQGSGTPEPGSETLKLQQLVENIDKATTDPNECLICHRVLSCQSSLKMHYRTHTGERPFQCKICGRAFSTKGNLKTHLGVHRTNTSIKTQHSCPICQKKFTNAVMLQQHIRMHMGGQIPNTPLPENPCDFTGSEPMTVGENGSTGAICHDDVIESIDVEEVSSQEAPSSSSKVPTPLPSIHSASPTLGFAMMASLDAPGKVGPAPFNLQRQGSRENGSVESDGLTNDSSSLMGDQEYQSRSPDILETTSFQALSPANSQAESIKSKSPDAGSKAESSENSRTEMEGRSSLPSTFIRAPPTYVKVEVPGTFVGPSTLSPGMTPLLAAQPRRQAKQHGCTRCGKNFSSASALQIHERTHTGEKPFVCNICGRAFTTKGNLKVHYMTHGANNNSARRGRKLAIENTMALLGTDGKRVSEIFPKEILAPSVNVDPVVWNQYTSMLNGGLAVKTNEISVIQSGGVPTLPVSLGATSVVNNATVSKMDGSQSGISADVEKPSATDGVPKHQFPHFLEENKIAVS
# Notes: 8-mer, flanks averaged, mean of replicates
Oligonucleotide,E-score
ACGCATCT,-0.0309
CAGGATTA,0.0617
TCTGGGCA,-0.237
GGCCAACA,-0.15
ACGACACA,0.0909
CCACATAA,0.202

# Set 3 — technique: RNA Bind-n-Seq; form: RNA; matrix: in vitro; concentration: 1 µM; notes: whole 134-nt RNA, ends assumed; with: 150 mM KCl; reference: input library; reading: higher = stronger binding
# Target: Ras GTPase-activating protein-binding protein 1, RRM domain (G3BP1, Homo sapiens, UniProt Q13283)
# Sequence of UniProt Q13283 (whole entry, looked up): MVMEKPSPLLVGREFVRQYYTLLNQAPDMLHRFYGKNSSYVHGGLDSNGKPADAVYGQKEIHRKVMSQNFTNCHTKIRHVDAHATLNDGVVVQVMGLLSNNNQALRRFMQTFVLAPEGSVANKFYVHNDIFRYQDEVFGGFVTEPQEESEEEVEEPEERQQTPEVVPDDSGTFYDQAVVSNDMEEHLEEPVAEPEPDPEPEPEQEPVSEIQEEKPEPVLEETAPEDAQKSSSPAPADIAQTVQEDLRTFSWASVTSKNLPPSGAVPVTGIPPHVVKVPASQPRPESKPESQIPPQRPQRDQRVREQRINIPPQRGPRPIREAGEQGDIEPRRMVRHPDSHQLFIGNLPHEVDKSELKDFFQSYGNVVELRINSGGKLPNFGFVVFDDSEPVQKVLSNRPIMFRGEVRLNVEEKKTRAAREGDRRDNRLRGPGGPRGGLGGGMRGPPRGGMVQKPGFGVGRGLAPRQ
# All sequences stand within: GGGAGUUCUACAGUCCGACGAUC … UGGAAUUCUCGGGUGUCAAGG
Oligonucleotide,log2 enrichment
AGUCCUGUGCUACACAUCGUAUGUACCGAAUCGGGUUUGGGAAAAAGGGAAAAAGGGAAAGUAUUAUGUUACGCCGUUCGGAUCUGCACU,0.464
CCUGUGCUACACAUCGUAUGUACCGAAUCGGGGUUUGGGGUUUUUGGGGAAAAAAAGGGGAAAGUAUUAUGUUACGCCGUUCGGAUCUGC,1.2
UAUAUUGAGGUAUAGAGCUAUUCUUUGUAGGUACCCUGGUGAGACCGAUACAAAUAUGCCCCUCCCCAUAAUGGAAUACUAAUUUUUAUU,-0.28
UGAAAUGUUUUUUUCUCUGUCUUCUUUCAGGUCUUUGUUGAGUAUGCAAAUGCUGGUGAUUCCAAAGCUGCGCAGAAAUUACUGACUGGA,-0.476
CUCAAGUCCUGUGCUACACAUCGUAUGUACCGAAUCGGGGAGGGGAGGGGAGGAAAGUAUUAUGUUACGCCGUUCGGAUCUGCACUUCCA,0.0861

# Other studies, line by line
Molecule,target,assay,test system,conditions,scale,endpoint,result
"PhoQ, residues 284 288 289 292 302 303 SSCCRF","PhoP, residues 12 14 15 18 19 GQALL (Escherichia coli, UniProt P23836)","Sort-seq, measured: YFP reporter",E. coli,"PhoQ-PhoP variant library, with: 10 µM Mg2+","reference: high Mg2+ state, higher = stronger signaling",fold induction,19.4
